Measurements pooled from the literature.
Each numbered part is a random draw from the data of one study; scales do not carry over between parts.
Sequence of UniProt P42336 (whole entry, unmodified, looked up): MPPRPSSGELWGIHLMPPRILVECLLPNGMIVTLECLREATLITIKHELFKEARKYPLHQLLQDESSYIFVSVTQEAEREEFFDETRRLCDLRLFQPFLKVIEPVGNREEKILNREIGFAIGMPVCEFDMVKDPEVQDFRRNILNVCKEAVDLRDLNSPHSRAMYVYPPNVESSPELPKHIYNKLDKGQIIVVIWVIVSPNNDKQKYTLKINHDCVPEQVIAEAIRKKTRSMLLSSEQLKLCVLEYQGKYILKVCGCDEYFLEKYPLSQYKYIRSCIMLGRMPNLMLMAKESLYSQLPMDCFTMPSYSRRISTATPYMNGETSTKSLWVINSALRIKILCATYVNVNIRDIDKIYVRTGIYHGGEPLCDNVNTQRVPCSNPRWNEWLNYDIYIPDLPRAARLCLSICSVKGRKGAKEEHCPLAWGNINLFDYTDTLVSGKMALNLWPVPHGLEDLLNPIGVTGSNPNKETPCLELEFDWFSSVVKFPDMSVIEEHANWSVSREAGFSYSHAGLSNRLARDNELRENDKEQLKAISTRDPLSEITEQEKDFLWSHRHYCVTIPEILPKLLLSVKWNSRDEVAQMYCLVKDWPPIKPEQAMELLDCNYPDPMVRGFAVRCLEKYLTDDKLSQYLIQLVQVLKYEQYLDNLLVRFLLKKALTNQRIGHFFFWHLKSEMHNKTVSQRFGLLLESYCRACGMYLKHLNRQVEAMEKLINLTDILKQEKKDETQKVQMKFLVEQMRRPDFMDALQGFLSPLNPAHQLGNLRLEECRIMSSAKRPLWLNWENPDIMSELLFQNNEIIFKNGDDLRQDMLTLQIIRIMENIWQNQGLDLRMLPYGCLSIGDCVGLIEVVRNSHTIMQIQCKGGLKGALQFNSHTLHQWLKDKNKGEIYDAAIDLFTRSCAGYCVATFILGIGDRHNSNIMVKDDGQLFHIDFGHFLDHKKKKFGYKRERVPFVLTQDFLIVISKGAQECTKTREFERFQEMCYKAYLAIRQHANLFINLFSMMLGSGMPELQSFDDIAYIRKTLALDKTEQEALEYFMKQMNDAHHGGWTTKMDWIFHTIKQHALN
Sequence of UniProt Q2M2I8 (whole entry, looked up): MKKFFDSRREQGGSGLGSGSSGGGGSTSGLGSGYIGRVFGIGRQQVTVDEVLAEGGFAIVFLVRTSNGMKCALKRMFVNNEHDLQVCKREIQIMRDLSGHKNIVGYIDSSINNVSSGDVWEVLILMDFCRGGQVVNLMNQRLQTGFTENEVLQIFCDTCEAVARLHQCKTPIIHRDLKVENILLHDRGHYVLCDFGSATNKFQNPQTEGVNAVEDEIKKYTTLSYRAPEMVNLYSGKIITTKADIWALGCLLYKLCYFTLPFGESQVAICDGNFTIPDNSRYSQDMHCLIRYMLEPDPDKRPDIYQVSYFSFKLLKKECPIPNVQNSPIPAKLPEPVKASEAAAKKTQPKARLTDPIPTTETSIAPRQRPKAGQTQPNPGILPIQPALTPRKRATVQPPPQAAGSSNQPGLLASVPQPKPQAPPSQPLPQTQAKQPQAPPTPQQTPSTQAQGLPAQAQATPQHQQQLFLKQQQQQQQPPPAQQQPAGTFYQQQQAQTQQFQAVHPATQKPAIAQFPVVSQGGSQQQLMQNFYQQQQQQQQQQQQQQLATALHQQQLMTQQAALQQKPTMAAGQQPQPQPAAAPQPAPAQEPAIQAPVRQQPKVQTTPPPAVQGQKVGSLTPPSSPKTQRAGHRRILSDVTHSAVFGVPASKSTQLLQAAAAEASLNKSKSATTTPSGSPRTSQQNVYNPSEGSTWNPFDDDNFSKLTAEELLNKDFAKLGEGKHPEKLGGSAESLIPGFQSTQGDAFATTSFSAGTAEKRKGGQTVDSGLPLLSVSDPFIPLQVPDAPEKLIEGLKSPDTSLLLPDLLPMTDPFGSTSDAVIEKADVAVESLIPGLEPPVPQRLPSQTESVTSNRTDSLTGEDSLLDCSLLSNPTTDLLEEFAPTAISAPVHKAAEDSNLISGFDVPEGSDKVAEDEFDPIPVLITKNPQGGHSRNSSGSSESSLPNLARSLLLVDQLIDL
Sequence of UniProt P36896 (whole entry, looked up): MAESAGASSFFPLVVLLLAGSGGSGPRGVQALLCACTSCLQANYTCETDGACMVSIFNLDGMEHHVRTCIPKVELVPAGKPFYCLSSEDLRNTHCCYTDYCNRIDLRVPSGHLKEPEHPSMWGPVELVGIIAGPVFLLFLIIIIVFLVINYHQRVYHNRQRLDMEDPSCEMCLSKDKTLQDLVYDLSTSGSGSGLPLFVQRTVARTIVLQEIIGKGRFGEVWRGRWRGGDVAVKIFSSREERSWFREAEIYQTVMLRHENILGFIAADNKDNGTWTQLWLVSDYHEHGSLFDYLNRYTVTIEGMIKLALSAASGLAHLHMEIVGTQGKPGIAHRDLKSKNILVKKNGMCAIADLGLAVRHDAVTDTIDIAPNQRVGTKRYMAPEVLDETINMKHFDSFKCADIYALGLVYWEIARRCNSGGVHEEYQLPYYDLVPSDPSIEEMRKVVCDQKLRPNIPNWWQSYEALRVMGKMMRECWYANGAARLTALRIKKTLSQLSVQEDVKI
Sequence of UniProt Q15831 (whole entry, looked up): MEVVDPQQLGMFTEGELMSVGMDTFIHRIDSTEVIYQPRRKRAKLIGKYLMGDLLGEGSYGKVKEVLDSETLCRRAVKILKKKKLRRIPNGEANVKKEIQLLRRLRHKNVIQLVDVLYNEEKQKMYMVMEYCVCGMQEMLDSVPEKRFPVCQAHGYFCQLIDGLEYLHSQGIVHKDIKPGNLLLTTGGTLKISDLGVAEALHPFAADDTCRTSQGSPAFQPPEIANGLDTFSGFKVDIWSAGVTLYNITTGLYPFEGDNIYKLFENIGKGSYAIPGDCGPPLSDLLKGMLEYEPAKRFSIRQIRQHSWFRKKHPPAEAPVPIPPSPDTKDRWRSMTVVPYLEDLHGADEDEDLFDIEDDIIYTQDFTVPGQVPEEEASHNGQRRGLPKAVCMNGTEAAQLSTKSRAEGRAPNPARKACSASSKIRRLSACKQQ

Series 1
Target: Protein kinase C beta type, isoform beta-II (PRKCB, Homo sapiens, UniProt P05771)
Sequence of UniProt P05771 (whole entry, looked up): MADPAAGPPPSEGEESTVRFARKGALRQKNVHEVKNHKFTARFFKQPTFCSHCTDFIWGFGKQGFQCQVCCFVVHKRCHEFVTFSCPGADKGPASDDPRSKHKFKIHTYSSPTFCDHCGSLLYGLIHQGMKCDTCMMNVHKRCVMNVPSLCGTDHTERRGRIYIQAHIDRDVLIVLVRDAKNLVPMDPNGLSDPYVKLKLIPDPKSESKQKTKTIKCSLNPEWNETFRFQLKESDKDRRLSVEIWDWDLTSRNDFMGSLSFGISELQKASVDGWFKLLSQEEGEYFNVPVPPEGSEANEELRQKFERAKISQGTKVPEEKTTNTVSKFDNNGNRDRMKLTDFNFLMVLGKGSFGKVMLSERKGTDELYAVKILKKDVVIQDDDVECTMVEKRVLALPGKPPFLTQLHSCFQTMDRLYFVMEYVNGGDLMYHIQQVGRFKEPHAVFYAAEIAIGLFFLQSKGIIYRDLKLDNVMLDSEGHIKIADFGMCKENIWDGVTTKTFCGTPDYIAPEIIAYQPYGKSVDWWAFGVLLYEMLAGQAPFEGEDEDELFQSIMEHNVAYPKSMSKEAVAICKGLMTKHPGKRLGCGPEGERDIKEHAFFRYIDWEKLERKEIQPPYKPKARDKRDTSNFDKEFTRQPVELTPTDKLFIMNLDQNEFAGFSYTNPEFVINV
Effect on: enzyme activity
Mode: inhibitor
Concentration: 0.5 µM
Relative to: control
Endpoint: remaining activity
Cn1sc(=O)n(Cc2ccccc2)c1=O: 111%
O=C(CCCc1ccc(-c2ccccc2F)cc1)Nc1ccc(O)cc1: 102%
Cc1nc(-c2ccccc2)c(-c2ccncc2)o1: 88.4%
O=C1NC(=O)C(c2cn(CCCn3ccnc3)c3ccccc23)=C1Nc1ccccc1: 4.29%
C#Cc1cccc(Nc2ncnc3cc(OCCOC)c(OCCOC)cc23)c1: 98.6%
CN(C)c1ccc(C=C2C(=O)Nc3ccccc32)cc1: 103%
COc1ccc(CNC(=O)Nc2ncc([N+](=O)[O-])s2)cc1: 103%
Nc1ncnc2n[nH]c(Nc3ccc(F)cc3)c12: 105%
COc1ccc(OC)c2c(=S)c3ccccc3[nH]c12: 106%
Oc1ccc(-c2nc(-c3ccncc3)c(-c3ccc(F)cc3)[nH]2)cc1: 75%
Cc1ccc(NC(=O)c2ccc(CN3CCN(C)CC3)cc2)cc1Nc1nc(-c2cccnc2)cs1: 95.9%
NCCNc1ncc(C(N)=O)c(Nc2cccc(C(F)(F)F)c2)n1: 86.1%
Cn1c2ccccc2c2c3c(c4c5ccccc5n(CCC#N)c4c21)CNC3=O: 9.73%
Nc1ccc2ncnc(NCCc3ccc(Oc4ccccc4)cc3)c2c1: 104%
Cc1cccc(-c2[nH]c(C(C)(C)C)nc2-c2ccc3c(c2)OCO3)n1: 99.9%
COc1ccc(C(=O)Nc2sc3c(c2C(N)=O)CCCC3)cc1OC: 93.5%

Series 2
SMILES: CC1=C(C#N)[C@@H](c2ccc3[nH]nc(C)c3c2)C(C#N)=C(c2ccc(Cl)cc2)N1
Concentration: 1 µM
Endpoint: remaining binding
STK11 (Homo sapiens, UniProt Q15831); cell-free assay, competition with immobilised ligand: 100%
PIK3CA (Homo sapiens, UniProt P42336, Q546K); cell-free assay, competition with immobilised ligand: 93.7%
ACVR1B (Homo sapiens, UniProt P36896); cell-free assay, competition with immobilised ligand: 100%
MAP2K1 (Homo sapiens, UniProt Q02750); cell-free assay, competition with immobilised ligand: 100%
PIK3CA (Homo sapiens, UniProt P42336, E542K); cell-free assay, competition with immobilised ligand: 78.6%
AAK1 (Homo sapiens, UniProt Q2M2I8); binding: 100%

Series 3
Target: Eukaryotic initiation factor 4A-I (EIF4A1, Homo sapiens, UniProt P60842, residues 1-406, full length assumed)
Sequence of UniProt P60842 (whole entry, looked up): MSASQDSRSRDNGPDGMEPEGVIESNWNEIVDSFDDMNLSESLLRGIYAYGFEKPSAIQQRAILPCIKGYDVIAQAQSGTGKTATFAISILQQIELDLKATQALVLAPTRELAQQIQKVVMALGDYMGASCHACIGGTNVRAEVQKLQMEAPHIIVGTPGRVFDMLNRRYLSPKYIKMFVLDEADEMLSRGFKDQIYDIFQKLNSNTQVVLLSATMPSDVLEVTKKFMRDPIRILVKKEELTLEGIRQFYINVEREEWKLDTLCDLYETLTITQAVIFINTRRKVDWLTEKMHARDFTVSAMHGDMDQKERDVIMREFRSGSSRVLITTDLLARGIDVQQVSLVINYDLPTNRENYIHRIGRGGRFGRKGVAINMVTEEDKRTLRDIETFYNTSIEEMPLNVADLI
Technique: RNA Bind-n-Seq
Form: RNA
Sample: in vitro
Concentration: 90 pmol
Notes: 4-mer, random 30-nt RNA, single round
Added: 3 µM iPr-DMDA-PatA, 2 mM ADP, 2 mM phosphate
Relative to: input library
Direction: higher = stronger binding
Endpoint: 4-mer enrichment
ACCA: 1.21 fold
UUGC: 0.838 fold
AUGA: 1.33 fold
AGCG: 0.891 fold
GCGA: 1.01 fold
CAAA: 1.34 fold
UUCA: 1.11 fold
AUUU: 1.25 fold

Mixed results
Target: Proto-oncogene c-Rel, Rel homology region (Rel, Mus musculus, UniProt P15307, residues 1-282)
Sequence of UniProt P15307 (1-282, looked up): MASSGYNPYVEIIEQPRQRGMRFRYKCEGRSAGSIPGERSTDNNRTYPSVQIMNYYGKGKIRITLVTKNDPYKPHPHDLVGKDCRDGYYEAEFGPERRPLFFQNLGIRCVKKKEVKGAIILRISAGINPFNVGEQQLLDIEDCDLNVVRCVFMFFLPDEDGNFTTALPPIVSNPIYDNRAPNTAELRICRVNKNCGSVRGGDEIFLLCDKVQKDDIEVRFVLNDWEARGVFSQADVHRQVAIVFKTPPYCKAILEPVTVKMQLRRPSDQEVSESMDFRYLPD
Technique: surface plasmon resonance
Form: double-stranded DNA, one strand shown
Sample: in vitro
Concentration: 1 nM to 1 µM
Notes: 10-bp κB site, 1:1 kinetic fit, 10 °C
Direction: higher = slower dissociation
GGGGGGAGTA  dissociation half-life: 0.0667 min
GGAAATTCCC  dissociation half-life: 6.12 min
